Results from different studies.
Each line is one published result; not all experiments were run side by side.
B1: SULT1A1 (Homo sapiens, UniProt P50225); chain MELIQDTSRPPLEYVKGVPLIKYFAEALGPLQSFQARPDDLLISTYPKSGTTWVSQILDMIYQGGDLEKCHRAPIFMRVPFLEFKAPGIPSGMETLKDTPAPRLLKTHLPLALLPQTLLDQKVKVVYVARNAKDVAVSYYHFYHMAKVHPEPGTWDSFLEKFMVGEVSYGSWYQHVQEWWELSRTHPVLYLFYEDMKENPKREIQKILEFVGRSLPEETVDFVVQHTSFKEMKKNPMTNYTTVPQEFMDHSISPFMRKGMAGDWKTTFTVAQNERFDADYAEKMAGCSLSFRSEL
B2: protein (Thermotoga neapolitana, UniProt B9K712); chain MKMLYDLAKKRKTVRRFKKEKPPLEDLIYSLKVANEAPSGMNAQPWRFLIVEDEKLKGQIRRVCERSEKTFYENVRGRLKEWLDEKRFTWRKPFLKEAPYLLLVFSEKSAPYSRESVWLAVGYLLLALEEKGLGSVPYTPPDFREVEKLVNTPSELRLEVILPVGYPDDPKPKYPRNEVIVRYNTF
B3: enzyme (Trypanosoma brucei, UniProt Q57W34); chain MTKGGKVAVTKGSAQSDGAGEGGMSKAKSSTTFVATGGGSLPAWALKAVSTIVSAVILIYSVHRAYDIRLTSVRLYGELIHEFDPWFNYRATQYLSDNGWRAFFQWYDYMSWYPLGRPVGTTIFPGMQLTGVAIHRVLEMLGRGMSINNICVYIPAWFGSIATVLAALIAYESSNSLSVMAFTAYFFSIVPAHLMRSMAGEFDNECVAMAAMLLTFYMWVRSLRSSSSWPIGALAGVAYGYMVSTWGGYIFVLNMVAFHASVCVLLDWARGIYSVSLLRAYSLFFVIGTALAICVPPVEWTPFRSLEQLTALFVFVFMWALHYSEYLRERARAPIHSSKALQIRARIFMGTLSLLLIVASLLAPFGFFKPTAYRVRALFVKHTRTGNPLVDSVAEHRPTTAGAYLRYFHVCYPLWGCGGLSMLVFMKKDRWRAIVFLASLSTVTMYFSARMSRLLLLAGPAATACAGMFIGGLFDLALSQFGDLHSPKDASGDSDPAGGSKRAKGKVVNEPSKRAIFSHRWFQRLVQSLPVPLRRGIAVVVLVCLFANPMRHSFEKSCEKMAHALSSPRIIAVTDLPNGERVLADDYYVSYLWLRNNTPEDARILSWWDYGYQITGIGNRTTLADGNTWSHKHIATIGKMLTSPVKESHALIRHLADYVLIWAGEDRGDLLKSPHMARIGNSVYRDMCSEDDPRCRQFGFEGGDLNKPTPMMQRSLLYNLHRFGTDGGKTQLDKNMFQLAYVSKYGLVKIYKVVNVSEESKAWVADPKNRVCDPPGSWICAGQYPPAKEIQDMLAKRFHYE
B4: enzyme (Astragalus mongholicus, UniProt A0A977WLP2); chain MDRVEQPLKLHVIPYLSDGHMIPLCDIAILFASRGHQVTIITTPSNVKTFQKSLPSHLHQYLHIHTIPFPSQEVGLPEGVENLSGIPDMDKLSRYTQAMTLLQPLIEEVVEHDPPDCIVADFMYPWVEELANKLRIPRLAFTCFSLFAICAMKSVMASSIHGGSGSFLIQGLPHPIRLNATPPMTLREGNMKEILDIQLKSHGLIVNNFSELDGEEYTEYYEKTINHKAWHIGPAYLIRKTAQEKAERGQGSTVSVHECMSWLNSKRDNSVLYISFGTISYLPNKQLYEIASALEACGHEFIWVVPEKKGKEDESEEEKENWLPKGFEERCIGKNKKGLLVKGWAPQLLILEHSAICAFLTHCGWNSIVEAAAAGVPMITWPVHGEQFYNEKLVTQVRGIGVEVGATEWSILGIFDRESVVRRESIEKAVRRLLDGGDEAKKIKQRAREFGDKAKRAAQEGGSSHRNLTALIEDLKRLRDNKF
B5: CMPK1 (Homo sapiens, UniProt P30085); chain MKPLVVFVLGGPGAGKGTQCARIVEKYGYTHLSAGELLRDERKNPDSQYGELIEKYIKEGKIVPVEITISLLKREMDQTMAANAQKNKFLIDGFPRNQDNLQGWNKTMDGKADVSFVLFFDCNNEICIERCLERGKSSGRSDDNRESLEKRIQTYLQSTKPIIDLYEEMGKVKKIDASKSVDEVFDEVVQIFDKEG
UniProt P46059, sequence (whole entry, looked up): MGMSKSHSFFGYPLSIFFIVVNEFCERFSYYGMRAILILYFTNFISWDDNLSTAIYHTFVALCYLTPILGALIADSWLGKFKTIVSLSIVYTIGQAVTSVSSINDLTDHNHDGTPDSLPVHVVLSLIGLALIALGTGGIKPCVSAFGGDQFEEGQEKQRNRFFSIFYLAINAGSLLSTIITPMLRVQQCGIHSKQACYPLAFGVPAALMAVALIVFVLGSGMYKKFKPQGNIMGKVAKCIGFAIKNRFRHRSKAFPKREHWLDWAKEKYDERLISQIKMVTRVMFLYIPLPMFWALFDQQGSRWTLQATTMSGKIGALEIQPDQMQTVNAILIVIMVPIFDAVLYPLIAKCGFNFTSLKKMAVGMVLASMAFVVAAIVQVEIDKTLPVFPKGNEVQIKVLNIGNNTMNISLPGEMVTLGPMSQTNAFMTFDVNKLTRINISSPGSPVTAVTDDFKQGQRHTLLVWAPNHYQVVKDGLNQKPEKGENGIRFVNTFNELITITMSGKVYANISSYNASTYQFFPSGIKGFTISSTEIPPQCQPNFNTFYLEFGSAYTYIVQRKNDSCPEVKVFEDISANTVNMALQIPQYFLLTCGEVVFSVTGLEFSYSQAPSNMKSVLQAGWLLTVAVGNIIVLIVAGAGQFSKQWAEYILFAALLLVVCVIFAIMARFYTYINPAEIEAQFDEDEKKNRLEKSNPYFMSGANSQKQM
UniProt A9CEZ0, sequence (whole entry, looked up): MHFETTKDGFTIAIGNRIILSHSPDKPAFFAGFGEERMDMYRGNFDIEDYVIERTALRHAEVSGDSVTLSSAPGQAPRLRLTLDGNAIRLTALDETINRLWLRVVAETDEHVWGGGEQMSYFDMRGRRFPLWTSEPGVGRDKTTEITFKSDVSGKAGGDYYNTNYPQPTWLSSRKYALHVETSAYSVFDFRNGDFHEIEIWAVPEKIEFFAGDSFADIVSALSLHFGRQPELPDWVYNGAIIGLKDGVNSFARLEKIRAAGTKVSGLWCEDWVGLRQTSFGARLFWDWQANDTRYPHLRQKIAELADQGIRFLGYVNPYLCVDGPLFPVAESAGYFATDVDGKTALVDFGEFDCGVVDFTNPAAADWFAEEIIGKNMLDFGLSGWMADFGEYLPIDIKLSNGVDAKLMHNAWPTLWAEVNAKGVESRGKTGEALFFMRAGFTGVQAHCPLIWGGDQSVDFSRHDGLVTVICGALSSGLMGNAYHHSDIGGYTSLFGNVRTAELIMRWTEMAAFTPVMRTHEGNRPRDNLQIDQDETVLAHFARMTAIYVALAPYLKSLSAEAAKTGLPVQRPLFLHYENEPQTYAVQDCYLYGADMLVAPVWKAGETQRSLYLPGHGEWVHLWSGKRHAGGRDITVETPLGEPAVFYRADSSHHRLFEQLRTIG
UniProt P10635, sequence (whole entry, looked up): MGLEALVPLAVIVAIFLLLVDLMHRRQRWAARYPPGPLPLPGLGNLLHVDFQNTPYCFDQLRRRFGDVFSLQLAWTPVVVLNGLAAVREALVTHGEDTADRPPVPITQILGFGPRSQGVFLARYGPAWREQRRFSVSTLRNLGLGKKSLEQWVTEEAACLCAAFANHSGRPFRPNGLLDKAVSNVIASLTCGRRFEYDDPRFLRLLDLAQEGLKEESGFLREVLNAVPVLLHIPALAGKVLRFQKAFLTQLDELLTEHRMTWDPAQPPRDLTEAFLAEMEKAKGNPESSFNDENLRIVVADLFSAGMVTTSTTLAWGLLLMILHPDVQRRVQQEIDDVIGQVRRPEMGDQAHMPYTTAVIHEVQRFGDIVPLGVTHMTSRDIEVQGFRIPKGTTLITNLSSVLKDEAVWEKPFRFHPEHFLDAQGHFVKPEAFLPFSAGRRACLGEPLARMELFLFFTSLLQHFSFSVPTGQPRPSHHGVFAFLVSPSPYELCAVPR
UniProt O88867, sequence (whole entry, looked up): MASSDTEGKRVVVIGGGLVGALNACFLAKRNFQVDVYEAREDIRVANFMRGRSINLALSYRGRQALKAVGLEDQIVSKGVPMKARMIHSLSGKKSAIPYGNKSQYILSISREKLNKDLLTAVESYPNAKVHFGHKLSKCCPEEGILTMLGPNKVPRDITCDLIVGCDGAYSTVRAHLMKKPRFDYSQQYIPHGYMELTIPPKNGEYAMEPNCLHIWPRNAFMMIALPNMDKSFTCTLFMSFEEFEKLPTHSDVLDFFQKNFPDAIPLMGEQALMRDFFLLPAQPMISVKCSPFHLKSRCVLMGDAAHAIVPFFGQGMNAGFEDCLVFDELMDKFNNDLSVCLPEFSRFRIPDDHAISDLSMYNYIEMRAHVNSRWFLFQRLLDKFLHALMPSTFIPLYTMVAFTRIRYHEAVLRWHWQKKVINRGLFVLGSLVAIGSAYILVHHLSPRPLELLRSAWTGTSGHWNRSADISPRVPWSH
UniProt P19525, sequence (whole entry, unmodified, looked up): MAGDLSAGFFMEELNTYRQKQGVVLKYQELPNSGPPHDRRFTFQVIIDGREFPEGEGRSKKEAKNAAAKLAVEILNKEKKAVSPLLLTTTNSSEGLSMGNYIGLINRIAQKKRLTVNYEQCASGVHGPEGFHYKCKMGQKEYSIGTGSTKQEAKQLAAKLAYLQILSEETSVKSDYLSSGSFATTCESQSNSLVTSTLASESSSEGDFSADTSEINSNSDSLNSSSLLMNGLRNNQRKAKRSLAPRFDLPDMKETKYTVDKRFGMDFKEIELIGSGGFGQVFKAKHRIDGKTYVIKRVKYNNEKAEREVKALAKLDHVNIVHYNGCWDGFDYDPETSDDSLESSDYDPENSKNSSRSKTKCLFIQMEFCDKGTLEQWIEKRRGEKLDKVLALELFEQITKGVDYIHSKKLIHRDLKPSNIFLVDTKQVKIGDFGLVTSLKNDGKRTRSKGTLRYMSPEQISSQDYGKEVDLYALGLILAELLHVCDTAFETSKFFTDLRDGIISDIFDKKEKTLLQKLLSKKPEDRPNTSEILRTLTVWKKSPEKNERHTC
UniProt B2RXH2, sequence (whole entry, looked up): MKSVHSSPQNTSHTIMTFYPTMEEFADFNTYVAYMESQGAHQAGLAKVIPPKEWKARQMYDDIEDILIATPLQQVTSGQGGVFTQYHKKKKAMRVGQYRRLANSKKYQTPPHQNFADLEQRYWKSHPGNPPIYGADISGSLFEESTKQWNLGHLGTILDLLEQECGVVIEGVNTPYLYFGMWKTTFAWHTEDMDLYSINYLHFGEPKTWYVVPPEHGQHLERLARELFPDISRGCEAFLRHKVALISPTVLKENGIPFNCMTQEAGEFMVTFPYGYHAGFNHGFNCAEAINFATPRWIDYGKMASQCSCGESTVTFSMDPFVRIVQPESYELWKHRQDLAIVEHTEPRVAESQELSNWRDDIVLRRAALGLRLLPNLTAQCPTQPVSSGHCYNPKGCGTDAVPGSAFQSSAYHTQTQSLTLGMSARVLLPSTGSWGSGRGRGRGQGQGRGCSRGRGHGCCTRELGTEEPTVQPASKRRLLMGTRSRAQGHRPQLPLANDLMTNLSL

| Substance | tested on | assay | system | conditions | measurement | value |
| --- | --- | --- | --- | --- | --- | --- |
| SLC15A1 (Homo sapiens, UniProt P46059) | CCC(CC)[C@H](NC(C)=O)[C@@H]1[C@H](O)[C@@H](C(=O)OCCOC(=O)[C@@H](N)C(C)C)C[C@H]1NC(=N)N | steady-state kinetics | – | pH 6, not purified | Km | 4230 µM |
| B1 (SULT1A1) | O=C(O[C@@H]1Cc2c(O)cc(O)cc2O[C@@H]1c1cc(O)c(O)c(O)c1)c1cc(O)c(O)c(O)c1 | steady-state kinetics | – | pH 7.4, not purified, with: EGCG 0–0.4 µM | Km | 0.38 µM |
| CYP2D6 (Homo sapiens, UniProt P10635) | CC(C)(C)NC(CO)c1cc(Cl)c(N)c(C(F)(F)F)c1 | steady-state kinetics | – | pH 7.4, 37 °C, not purified | Km | 124 µM |
| enzyme (Agrobacterium fabrum, UniProt A9CEZ0) | O=[N+]([O-])c1ccc(O[C@H]2O[C@H](CS(=O)(=O)O)[C@@H](O)[C@H](O)[C@H]2O)cc1 | steady-state kinetics | – | – | Km | 210 µM |
| Kmo (Rattus norvegicus, UniProt O88867) | Nc1ccccc1C(=O)CC(N)C(=O)O | steady-state kinetics | HEK | 37 °C, rat Kmo, in cells, apparent, not purified | Km | 258 µM |
| B2 (protein) | N[C@@H](Cc1ccc(O)c(I)c1)C(=O)O | steady-state kinetics | – | pH 7.4, 60 °C | Km | 3.5 µM |
| RNA 1 GGAGGAUGUUAAUUGGCGUGUCUUGUCUGCAACGGUAUUC / RNA 2 GAAUACCGUUGCAGACAAGACACGCCAAUUAACAUCCUCC (dsRNA) | EIF2AK2 1-185 F41W/R107A (Homo sapiens, UniProt P19525) | tryptophan fluorescence anisotropy | double-stranded RNA | 1 µM | binding | binds |
| B3 (enzyme) | CC(=O)N[C@H]1[C@H](O[C@H]2[C@H](O)[C@@H](NC(C)=O)[C@@H](OP(=O)(O)OP(=O)(O)OCC[C@@H](C)CC/C=C(/C)CC/C=C(\C)CC/C=C(\C)CCC=C(C)C)O[C@@H]2CO)O[C@H](CO)[C@@H](O[C@@H]2O[C@H](CO[C@H]3O[C@H](CO)[C@@H](O)[C@H](O)[C@@H]3O)[C@@H](O)[C@H](O[C@H]3O[C@H](CO)[C@@H](O)[C@H](O)[C@@H]3O)[C@@H]2O)[C@@H]1O | steady-state kinetics | – | pH 7.5 | Km | 18.8 µM |
| B4 (enzyme) | CC(C)(O)[C@H]1CC[C@@](C)([C@H]2[C@@H](O)C[C@@]3(C)[C@@H]4C[C@H](O)[C@H]5C(C)(C)[C@@H](O)CC[C@@]56C[C@@]46CC[C@]23C)O1 | steady-state kinetics | – | pH 8, 35 °C | Km | 23.8 µM |
| KDM4E (Homo sapiens, UniProt B2RXH2) | C[C@H](N)C(=O)N[C@@H](CCCNC(=N)N)C(=O)N[C@@H](CCCC[N+](C)(C)C)C(=O)N[C@@H](CO)C(=O)N[C@H](C(=O)NCC(=O)NCC(=O)N[C@@H](CCCCN)C(=O)O)[C@@H](C)O | steady-state kinetics | – | pH 7.5, 37 °C | Km | 21.3 µM |
| B5 (CMPK1) | Nc1ccn(C2OC(COP(=O)(O)O)C(O)C2O)c(=O)n1 | steady-state kinetics | – | 37 °C, with: ATP 1 mM | Km | 20 µM |
